# Published values of several laboratories.
# Lines come from different studies, so protocols differ. “And” joins repeats or separate records; there may be more than shown. Numbers after ± are the reported error.
# rep main protease: Replicase polyprotein 1ab, main protease (rep, Severe acute respiratory syndrome coronavirus 2, UniProt P0DTD1)
# Spike glycoprotein: Spike glycoprotein (Severe acute respiratory syndrome coronavirus 2, UniProt P0DTC2)
SMILES,tested on,assay,system,setting,scale,measurement,value
Cc1ncccc1-c1nc2cc(C(=O)NCCCc3ccccc3)ccc2o1,SARS-CoV-2,cytopathic effect,USA_WA1/2020,"retest, 8-point, duplicates",,maximum response,38.2%
CCOC(=O)COc1ccc(/C=C2\SC(=S)NC2=O)cc1OC,rep main protease,"viral replication, Gluc reporter",SARS-CoV-2,20 µM,,inhibition,0.0578%
CC(C)=CCc1c(O)ccc(C(=O)/C=C/c2ccc(O)cc2)c1O,Spike glycoprotein,binding,,,,koff,0.249 s⁻¹
CCc1c(C(=O)C(N)=O)c2c(OCC(=O)O)cccc2n1Cc1ccccc1,Daboia russelii venom phospholipase A2,"enzyme activity, inhibitor",KL population,"1 µM, with: NOB substrate",relative to: venom alone,remaining activity,35.7% and 37.7% and 33.1%
Cc1cccc(N2CCN(C(=O)C3CCN(Cc4nc(-c5ccc(Cl)cc5)oc4C)CC3)CC2)c1C,SARS-CoV-2,cytopathic effect,USA_WA1/2020,"retest, 8-point, duplicates",,efficacy,12.1%
O=C(c1cc2ccc(O)cc2[nH]1)N1CC2(C1)CN(C(=O)[C@H]1CCc3n[nH]nc3C1)CCO2,rep main protease,"enzyme activity, inhibitor",,"5 µM, run 1",,inhibition,9.8%
Cn1cnc(Cn2c(=O)[nH]/c(=N\c3cc4cn(C)nc4cc3Cl)n(Cc3cc(F)c(F)cc3F)c2=O)n1,,,"human, mild renal impairment","oral, 375 mg, treatment-related decreased GFR, Severe severity",,patients with adverse event,0%
COC[C@H](NC(=O)c1cnc(C)s1)C(=O)N[C@@H](COC)C(=O)N[C@@H](Cc1ccccc1)C(=O)[C@@]1(C)CO1,rep main protease,"reporter gene (Gaussia luciferase), inhibitor",,20 µM,,inhibition,-5.23%
CC[C@H](C)[C@H](NC(=O)[C@H](CC(C)C)NC(=O)[C@H](Cc1c[nH]c2ccccc12)NC(=O)[C@H](CCC(N)=O)NC(=O)[C@@H](NC(=O)[C@H](Cc1ccccc1)NC(=O)[C@H](C)NC(=O)[C@H](CCCCNC(=O)COCCOCCNC(=O)COCCOCCNC(=O)CC[C@H](NC(=O)CCCCCCCCCCCCCCCCCCC(=O)O)C(=O)O)NC(=O)[C@H](CCC(N)=O)NC(=O)[C@H](C)NC(=O)[C@@H](NC(=O)[C@H](CCCCN)NC(=O)[C@H](CC(=O)O)NC(=O)[C@H](CC(C)C)NC(=O)C(C)(C)NC(=O)[C@@H](NC(=O)[C@H](CO)NC(=O)[C@H](Cc1ccc(O)cc1)NC(=O)[C@H](CC(=O)O)NC(=O)[C@H](CO)NC(=O)[C@@H](NC(=O)[C@H](Cc1ccccc1)NC(=O)[C@@H](NC(=O)CNC(=O)[C@H](CCC(=O)O)NC(=O)C(C)(C)NC(=O)[C@@H](N)Cc1ccc(O)cc1)[C@@H](C)O)[C@@H](C)O)[C@@H](C)CC)[C@@H](C)CC)C(C)C)C(=O)N[C@@H](C)C(=O)NCC(=O)NCC(=O)N1CCC[C@H]1C(=O)N[C@@H](CO)C(=O)N[C@@H](CO)C(=O)NCC(=O)N[C@@H](C)C(=O)N1CCC[C@H]1C(=O)N1CCC[C@H]1C(=O)N1CCC[C@H]1C(=O)N[C@@H](CO)C(N)=O,,refers to: anti-drug antibodies,patients with type 2 diabetes,"5/5/10/15 mg escalating, titer ≥1:20",,subjects with treatment-induced ADA,0%
C=C1C(=O)[C@@]23[C@H](O)C[C@@H]4C(C)(C)C(=O)CC[C@@]4(C)[C@@H]2CC[C@@H]1[C@H]3O,rep main protease,"reporter gene (mKate2), inhibitor",,20 µM,,inhibition,-1.77%
O=c1oc2c(cc1O)oc(=O)c1cc(O)c(O)c(O)c12,"Replicase polyprotein 1ab, nsp14 N7-methyltransferase (rep, Severe acute respiratory syndrome coronavirus 2, UniProt P0DTD1)","N7-methyltransferase activity, inhibitor, Py-FLINT",,,,Hill slope,1.07 ± 0.08
O=C1[C@H]2CSC3(C(=O)c4ccccc4C3=O)N2C(=O)[C@H]2CSC3(C(=O)c4ccccc4C3=O)N12,rep main protease,"viral replication, Gluc reporter",SARS-CoV-2,20 µM,,inhibition,2.58%
Nc1ncnc2c([C@@H]3N[C@H](CO)[C@@H](O)[C@H]3O)c[nH]c12,Western equine encephalitis virus,"viral replication, inhibitor",Vero 76,9.5 µM,,inhibition,3.6%
Cc1ccc2cc(C(=O)N3CCCC4(CCN(c5cc6nncn6c(C)n5)CC4)C3)ccc2c1,rep main protease,"enzyme activity, inhibitor",,"5 µM, mean of runs",,inhibition,11.9%
CO[C@H]1[C@@H](O)[C@H](O[C@@H]2[C@@H](C)O[C@@H](O[C@H]3CC[C@@]4(C)[C@@H](CC[C@@]56O[C@@]57CC[C@@H](C(C)=O)[C@@]7(C)[C@H](OC(C)=O)[C@@H](OC(=O)c5ccccc5)[C@H]46)C3)C[C@H]2OC)O[C@H](C)[C@H]1O,Spike glycoprotein,"binding, biolayer interferometry",,,,koff,1.42 s⁻¹
O=C(Cn1c(O)ccc1O)N[C@@H]1CCCCC12CCN(C(=O)c1cncc3[nH]cnc13)CC2,rep main protease,"enzyme activity, inhibitor",,5 µM,,inhibition,7.4%
O=C(O[C@@H]1Cc2c(O)cc(O)cc2O[C@@H]1c1cc(O)c(O)c(O)c1)c1cc(O)c(O)c(O)c1,Spike glycoprotein,binding,,,,koff,0.00244 s⁻¹
Cc1cc(C(=O)N2CCC3(CC2)CN(C(=O)C[C@@H]2CC[C@H](O)C2)Cc2ccccc2O3)n[nH]1,rep main protease,"enzyme activity, inhibitor",,"5 µM, run 1",,inhibition,10.9%
Nc1cc(OC2CN(C(=O)c3ccc(S(=O)(=O)F)cc3)C2)ccn1,"cya (Bacillus anthracis, UniProt P40136)",,,,,kinact,5e-05 s⁻¹
